Measurements gathered from unrelated publications.
Parts stem from different laboratories: compare values within a part only.

Block 1 — method: RNA Bind-n-Seq; form: RNA; sample: in vitro; concentration: 200 nM; notes: whole 134-nt RNA, ends assumed; with: 150 mM LiCl; baseline: input library; direction: higher = stronger binding; all molecules: 7-deaza-guanosine replaces G
Target: Fragile X messenger ribonucleoprotein 1, C-terminal low-complexity region (Fmr1, Mus musculus, UniProt P35922)
| Strand | log2 enrichment |
| --- | --- |
| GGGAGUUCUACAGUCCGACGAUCUCCUUCCUUUUUUUGUCUUAAACAUAGGACAUGGAUUUGAUUGACAUACUUUGGAGGCAAGAUAUAGAUCUUGGAGUAAGUCGAGAAGUAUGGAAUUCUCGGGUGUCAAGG | -1.64 |
| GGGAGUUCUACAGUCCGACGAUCGUCCUGUGCUACACAUCGUAUGUACCGAAUCGGGCCCCCGGGCCCCCGGGGCCCCCGGAAAGUAUUAUGUUACGCCGUUCGGAUCUGCACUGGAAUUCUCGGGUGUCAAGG | -3.29 |
| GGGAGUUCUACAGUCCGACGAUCCACAGACAACACGCACCCACACAGACACAGAGGGAAGGGGUUGGGAUGGGGACAGGGUGCAGAGCAGGGCGGGGUAGGACCCCAGCCCCUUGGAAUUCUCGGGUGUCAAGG | 0.247 |
| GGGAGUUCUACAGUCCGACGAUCUCAAGUCCUGUGCUACACAUCGUAUGUACCGAAUCGGUUUGGUUUGGGGUUUGGGAAAGUAUUAUGUUACGCCGUUCGGAUCUGCACUUCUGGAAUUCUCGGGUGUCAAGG | -2.49 |
| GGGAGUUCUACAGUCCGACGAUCGUCCUGUGCUACACAUCGUAUGUACCGAAUCGGGGUUUGGGGUUUGGGGAAAAAGGGGAAAGUAUUAUGUUACGCCGUUCGGAUCUGCACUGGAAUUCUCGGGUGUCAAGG | -1.14 |
| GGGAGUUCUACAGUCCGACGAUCCACAGACAACACGCAUCCACACAGACACAGAGGGAAGGGGUUGGGAUGGGGACAGGGUGCACAGCAGGGCGGGGUAGGACCCCAGCCCCUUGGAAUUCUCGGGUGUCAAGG | 1.22 |

Block 2 — method: RNA Bind-n-Seq; form: RNA; sample: in vitro; concentration: not given; baseline: input RNA pool; direction: higher = stronger binding
Target: RING finger protein unkempt homolog, zinc fingers 1-6, GST-SBP tag (UNK, Homo sapiens, UniProt Q9C0B0, residues 30-357)
Chain of UniProt Q9C0B0 (30-357, looked up): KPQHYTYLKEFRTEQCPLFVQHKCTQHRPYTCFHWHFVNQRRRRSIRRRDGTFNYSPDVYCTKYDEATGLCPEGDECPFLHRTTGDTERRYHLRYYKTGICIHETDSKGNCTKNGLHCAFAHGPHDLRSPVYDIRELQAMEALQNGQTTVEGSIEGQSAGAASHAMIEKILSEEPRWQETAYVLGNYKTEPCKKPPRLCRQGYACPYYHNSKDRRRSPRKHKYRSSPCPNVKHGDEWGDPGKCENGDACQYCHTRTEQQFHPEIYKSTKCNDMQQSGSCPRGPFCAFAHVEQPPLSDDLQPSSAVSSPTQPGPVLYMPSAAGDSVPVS
Notes: RNA with constant flanks, human and mouse sites, ends assumed
| Strand | bound/input enrichment [ratio] |
| --- | --- |
| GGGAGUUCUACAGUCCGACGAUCAAUGGUACUUCAGCAGCACUUCGUGAAACUGGGGUUAUUGAAAAACUCUUGACCUCUUACGGAUUCAUUCAGUGUUCAGAACGGCAAGCUAGACUUUUCUUCCACUGUUCACAAUAUAAUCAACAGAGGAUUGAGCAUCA | 0.22 |
| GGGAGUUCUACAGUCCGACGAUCACUUCUGGAGGUGGGUUGGACCUCCGCGGAAUGUCUAGCUUCCAAACUUUGGCUGUUGGUAUUAGAGGCAGAUUUUCUUCUCGAGUCUCUCCUGCCUUGGAUGGGCCUCAAUAGGAGUGGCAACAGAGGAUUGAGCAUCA | 0.532 |
| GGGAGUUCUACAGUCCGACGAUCUAUUCUUCUGGGAGCAGAAAAGGGUUUUUGUCAGGCUUGCUAGAUAACAUCAAACAAGAAUUAGCCAAAAACAAAGAGAUGAAAGAAAGUAUAAAAAAGUUCCGAGAUGAGGCCAAGAAGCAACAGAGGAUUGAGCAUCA | 0.815 |
| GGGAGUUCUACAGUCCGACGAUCUACUUACCUCUUGCAAAAAAAAGAAAAAAGAAAAAAGUUCAUUUAUUCAUUCUGUUUCUAUAUAGCAAAACUGAAUGUCAAAAGUACCUUCUGUCCACACACACAAAAUCUGCAUGUAUUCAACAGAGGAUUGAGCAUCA | 0.471 |
| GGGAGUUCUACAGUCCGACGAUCGCCAGCAAGCCUCAGAGUAUCCAAGAAUCAACUGGCAGUAUAAUUGAAGUUCUGAGUAAAAUAGAUUCAGAAGGAGGAGUUUCAGCAAAUCAUACUAGUCGUGCAACGUCUACAGCAACACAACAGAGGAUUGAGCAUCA | 0.5 |
| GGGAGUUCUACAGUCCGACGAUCCCAUUUGCCAGCCUAAUGCGCAUGCUUUCUGCCUCUGGUAACAGGAGUGAGUGAGCCCCUCAGACCUGCACUCUGGGUGUCUCCUGCUUUCAAAGGUUCUUAAUAGUGAAUGCUUUAAAACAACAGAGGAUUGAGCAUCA | 0.305 |
| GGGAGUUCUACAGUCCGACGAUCAGUGAUGAUGUCAUCGAGUUGACGCCAUCAAAUUUCAACAGAGAAGUUAUUCAGAGUGACGGCCUGUGGCUUGUAGAAUUUUAUGCACCAUGGUGUGGUCACUGCCAGAGGUUAACACCACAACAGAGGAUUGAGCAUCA | 0.118 |

Block 3 — method: RNA Bind-n-Seq; form: RNA; sample: in vitro; concentration: 365 nM; baseline: no-protein control; direction: higher = stronger binding
Target: RNA binding protein fox-1 homolog 2, RRM domain, GST-SBP tag (RBFOX2, Homo sapiens, UniProt O43251-10, residues 100-194)
Notes: natural RNA segment, single round, ends assumed
Target sequence (chain): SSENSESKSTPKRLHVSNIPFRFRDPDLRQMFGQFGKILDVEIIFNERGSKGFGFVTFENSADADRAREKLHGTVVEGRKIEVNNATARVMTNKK
| Strand | RBNS enrichment (R) |
| --- | --- |
| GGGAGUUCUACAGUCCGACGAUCGUACUGUACCAGAAAACUGAGGGUCCCAGUUCUGGUCCCACCACCUUCCAAGUGUUUGCCAUGUGGCAGGCUUUGUUCUGGCUCAGUUUCCAAUUAGAAAGUGGAAAUCUUGGAAUUCUCGGGUGCCAA | 0.32 |
| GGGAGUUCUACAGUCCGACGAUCCCACAGCACCCAGGAGUGGCCCUGUCUUGCCACAAAGAGCCCGACCAGCAGGUCCUGCAGCUUACCAAGCCCAGGGUGUGUGGGGCCCUCACGCAGUUCGACUGGGAAAAUGGAAUUCUCGGGUGCCAA | 0.253 |
| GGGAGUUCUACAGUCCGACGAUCGGCUAUAACAGAUGCUUUUAAAGCAAAUGAUACCAUUUAAGAAAUUCAGAGAGGCAUUACUUAGAAUGCUGACAUAAAGACAUGACCUUGAAGAAAAGAAUAGAAUUCUCUGGAAUUCUCGGGUGCCAA | 1.39 |
| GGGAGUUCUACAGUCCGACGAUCUGAUAUUCUAGGGUUGGUUUGUAGAUUCAAAUAAUCCAGAAAUAUACCUAAUAAGAUUGAGUGAAAAAUUUGAGUCAAAUAUCUAGGGCAUUCACAGAGUAGCUGUGAGUUGGAAUUCUCGGGUGCCAA | 0.623 |
| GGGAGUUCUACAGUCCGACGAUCUCCAGGAGCUAUGGGGUUCAUCCAGGCAUGAAGGCUAAUCCACUCUGAGUAAAGUGUCAGUUGCACAGCUCCGUCCUCUUCUGUCUUGCACUGUGGGUGGCACUAUUUAUUGGAAUUCUCGGGUGCCAA | 4.1 |
| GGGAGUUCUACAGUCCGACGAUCUAAGCUACAUCCCCAGUCCCUCUUUCUAGAAAACAGAUAAGUCCAUGUUCAGGGGAGAAGAGGUCACAGGUCAGGCCAGCUGCCCCAUCCUUUAGUUCGGGGUUAGCUCCUGGAAUUCUCGGGUGCCAA | 0.293 |

Other studies, line by line
| Molecule | target | test | test system | setting | scale | measurement | result |
| --- | --- | --- | --- | --- | --- | --- | --- |
| PhoQ, residues 284 288 289 292 302 303 SLKLQV | PhoP, residues 12 14 15 18 19 TPWLV (Escherichia coli, UniProt P23836) | Sort-seq, item: YFP reporter | E. coli | PhoQ-PhoP variant library, with: 10 µM Mg2+ | baseline: high Mg2+ state, higher = stronger signaling | fold induction | 20.2 |

Excerpt of the above (block 3):
| Strand | RBNS enrichment (R) |
| --- | --- |
| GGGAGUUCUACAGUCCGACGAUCUAAGCUACAUCCCCAGUCCCUCUUUCUAGAAAACAGAUAAGUCCAUGUUCAGGGGAGAAGAGGUCACAGGUCAGGCCAGCUGCCCCAUCCUUUAGUUCGGGGUUAGCUCCUGGAAUUCUCGGGUGCCAA | 0.293 |
| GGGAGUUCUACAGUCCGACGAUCUGAUAUUCUAGGGUUGGUUUGUAGAUUCAAAUAAUCCAGAAAUAUACCUAAUAAGAUUGAGUGAAAAAUUUGAGUCAAAUAUCUAGGGCAUUCACAGAGUAGCUGUGAGUUGGAAUUCUCGGGUGCCAA | 0.623 |
